Experimental data from different studies.
Compare with care: the assays were run in different laboratories. Numbers after ± are the reported error.
CYP3A4: Cytochrome P450 3A4 (CYP3A4, Homo sapiens, UniProt P08684)
UniProt P08684, sequence (whole entry, looked up): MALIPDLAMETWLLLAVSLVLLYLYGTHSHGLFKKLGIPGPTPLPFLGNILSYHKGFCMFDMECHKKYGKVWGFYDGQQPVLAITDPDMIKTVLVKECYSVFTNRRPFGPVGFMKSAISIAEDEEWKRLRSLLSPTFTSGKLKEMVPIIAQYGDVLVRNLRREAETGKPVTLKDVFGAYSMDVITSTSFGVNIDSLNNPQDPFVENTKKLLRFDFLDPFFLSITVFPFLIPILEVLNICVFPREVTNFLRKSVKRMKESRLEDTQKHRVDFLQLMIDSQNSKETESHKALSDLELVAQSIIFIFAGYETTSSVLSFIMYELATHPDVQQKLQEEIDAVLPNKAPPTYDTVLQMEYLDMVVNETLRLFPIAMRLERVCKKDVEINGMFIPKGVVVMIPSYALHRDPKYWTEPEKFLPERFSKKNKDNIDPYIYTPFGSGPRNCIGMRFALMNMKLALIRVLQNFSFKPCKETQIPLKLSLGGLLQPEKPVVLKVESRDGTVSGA

COc1c(O)c(C)cc2c1C(=O)c1c(O)cccc1C2=O  viability (HK-2 co-cultured with HepaRG; MTT; 66.67 µM, 24 h; reference: untreated control): 77.1 ± 14%
CC[C@H]1[C@@H](O)[C@@H]2[C@H](CC[C@]3(C)[C@@H]([C@H](C)CCNC(=O)NS(=O)(=O)c4ccc(C(C)(C)C)cc4)CC[C@@H]23)[C@@]2(C)CC[C@@H](O)C[C@@H]12  AUC(0-t) mean (CYP3A4; human, plasma; 10 mg, day 1, compound alone): 434 ng·h/mL
COc1cc2c(c(OC)c1OC)-c1c(cc3c(c1OC)OCO3)[C@H](OC(=O)c1ccccc1)[C@@](C)(O)[C@@H](C)C2  IC50 ratio (human recombinant CYP3A4 and CYP3A5; measured: 1′-hydroxymidazolam; 15 min, pH 7.4, together with: midazolam 5 µM; reference: CYP3A4 over CYP3A5): 5.7
O=C(O)c1cc(O)c2c(c1)C(=O)c1cccc(O[C@@H]3O[C@H](CO)[C@@H](O)[C@H](O)[C@H]3O)c1C2=O  cell viability (HK-2 co-cultured with HepaRG; MTT; 16.67 µM, 24 h; reference: untreated control): 104 ± 8.97%
Cc1cc(Nc2ncnc3ccc(NC4=NC(C)(CO)CO4)cc23)ccc1Oc1ccn2ncnc2c1 (stereo not drawn)  AUC(0-t) (arithmetic mean) (CYP3A4; human, plasma; tucatinib, day 6, together with: itraconazole): 783 ng·h/mL
Cc1cc(O)c2c(c1)C(=O)c1cc(O)cc(O)c1C2=O  viability (HK-2 co-cultured with HepaRG; MTT; 66.67 µM, 48 h; reference: untreated control): 67.1 ± 5.56%
CC[C@H](CO)N(CCN(N=O)[C@H](CC)CO)N=O  revertant colonies per plate (Salmonella typhimurium; plate incorporation; TA1535, water; 500 µg/plate, without S9): 19.3 ± 6
CCCCc1oc2ccc(NS(C)(=O)=O)cc2c1C(=O)c1ccc(OCCCN(CCCC)CCCC)cc1  ALERT score (H9 human embryonic stem cell aggregates; qRT-PCR; 3D aggregates; 0.05 µM, 5 days, developmental toxicity model; direction not given): 1
O=C1Nc2ccc(Cl)cc2[C@@](C#CC2CC2)(C(F)(F)F)O1  CC50 (MT4 uninfected): > 6.33 µM
COc1c(O[C@@H]2O[C@H](CO)[C@@H](O)[C@H](O)[C@H]2O)cc2c(c1O)C(=O)c1c(cc(C)c(O)c1OC)C2=O  cell viability (HK-2 co-cultured with HepaRG; MTT; 66.67 µM, 24 h; reference: untreated control): 92.1 ± 11.2%
Cc1cc(Nc2ccc(S(F)(F)(F)(F)F)cc2)n2nc(C(C)(F)F)nc2n1  patients with QTcF increase (Plasmodium vivax; 12-lead ECG; malaria patients; oral, 400 mg, increase above 60 ms): 0%
c1csc(CNc2cc[nH]n2)c1  cells with structural aberrations (human peripheral blood lymphocytes, female; 225 µg/mL, 20 h, without S9): 0%
COc1cc2c(c(O)c1OC)C(=O)c1c(cc(C)c(O[C@@H]3O[C@H](CO)[C@@H](O)[C@H](O)[C@H]3O)c1OC)C2=O  cell viability (HK-2 co-cultured with HepaRG; MTT; 133.33 µM, 48 h; reference: untreated control): 84 ± 5.74%
Nc1nc2c(ncn2COCCO)c(=O)[nH]1  therapeutic index (HSV-2 strain 333; viral DNA replication, qPCR; BEAS-2B; reference: CC50 over IC50): > 100
O=C(Nc1nc2cccc(-c3ccc(CN4CCS(=O)(=O)CC4)cc3)n2n1)C1CC1  treatment-emergent adverse events (measured: chills; human rheumatoid arthritis patients; oral, 150 mg once daily, 4 weeks, regardless of relatedness): 0%

Repeated from above:
Cc1cc(Nc2ccc(S(F)(F)(F)(F)F)cc2)n2nc(C(C)(F)F)nc2n1  patients with QTcF increase (Plasmodium vivax; 12-lead ECG; malaria patients; oral, 400 mg, increase above 60 ms): 0%
c1csc(CNc2cc[nH]n2)c1  cells with structural aberrations (human peripheral blood lymphocytes, female; 225 µg/mL, 20 h, without S9): 0%
